{"data": "Published values gathered from unrelated publications", "note": "Numbered parts are unrelated; each lists some results of a single study."}
{"data": "Sample 1", "target": "Replicase polyprotein 1ab, polymerase (rep, Severe acute respiratory syndrome coronavirus 2, UniProt P0DTD1)", "read-out": "enzyme activity", "action": "inhibitor", "tested at": "20 µM"}
{"SMILES": "CC(CCc1ccc(O)cc1)NCC(O)c1ccc(O)cc1 (stereo not drawn)", "inhibition": "-3.11%"}
{"SMILES": "Nc1nc(=O)n([C@H]2C[C@H](O)[C@@H](CO)O2)cc1F", "inhibition": "-4.99%"}
{"SMILES": "Cc1ncc(CO)c(CN)c1O", "inhibition": "0.41%"}
{"SMILES": "COc1ccc2[nH]cc(C3=CCNCC3)c2c1", "inhibition": "-3.34%"}
{"SMILES": "CCCCCCCCCCCCCCCCCC(=O)OC[C@@H](O)[C@H]1OC[C@H](O)[C@H]1O", "inhibition": "-11.2%"}
{"SMILES": "C#CC1(OCC(O)CN2CCN(c3cccc(C(F)(F)F)c3)CC2)CCCCC1 (stereo not drawn)", "inhibition": "-0.43%"}
{"SMILES": "O=C(O)CCNc1cc(N2CCc3ccccc3CC2)nc(-c2cccnc2)n1", "inhibition": "-5.7%"}
{"SMILES": "O=C1NC(c2ccccc2)(c2ccccc2)C(=O)N1COP(=O)(O)O", "inhibition": "-4.69%"}
{"SMILES": "CC(=O)OC[C@H]1O[C@@H](n2ccc(=O)[nH]c2=O)[C@H](OC(C)=O)[C@@H]1OC(C)=O", "inhibition": "2.86%"}
{"SMILES": "O=C1[C@H](CC[C@H](O)c2ccc(F)cc2)[C@@H](c2ccc(O)cc2)N1c1ccc(F)cc1", "inhibition": "1.58%"}
{"SMILES": "O=C1Nc2ccc(Cl)c3c2C1(CCCCN1CC=C(c2ccc(Cl)cc2)CC1)CCC3 (stereo not drawn)", "inhibition": "10.4%"}
{"SMILES": "Cn1cnc2c(F)c(Nc3ccc(Br)cc3F)c(C(=O)NOCCO)cc21", "inhibition": "-1.63%"}
{"SMILES": "NC(=O)N1C(=O)/C(=C(\\O)c2cccs2)c2cc(Cl)ccc21", "inhibition": "-7.35%"}
{"SMILES": "O=C1c2cccc(O)c2C(=O)c2c(O)cccc21", "inhibition": "2.48%"}
{"SMILES": "CC1(C)O[C@H]2CC(=O)OC[C@]23[C@H]2CC[C@@]4(C)[C@H](c5ccoc5)OC(=O)[C@H]5O[C@]54[C@]2(C)C(=O)C[C@@H]13", "inhibition": "-2.73%"}
{"SMILES": "CC1=C(/C=C/C(=C/C=C/C(C)=C/C(=O)O)c2ccc(C)cc2)C(C)(C)CCC1", "inhibition": "-0.1%"}
{"SMILES": "Cc1c(N(C)CS(=O)(=O)O)c(=O)n(-c2ccccc2)n1C", "inhibition": "5.05%"}
{"SMILES": "O[C@@H](c1cc(C(F)(F)F)nc2c(C(F)(F)F)cccc12)[C@H]1CCCCN1", "inhibition": "7.71%"}
{"SMILES": "O=[N+]([O-])c1ccc(O)c([N+](=O)[O-])c1", "inhibition": "2.78%"}
{"SMILES": "C[C@@H](NCCc1ccc(O)cc1)[C@@H](O)c1ccc(O)cc1 (racemic)", "inhibition": "11.6%"}
{"SMILES": "c1cc(Cc2cnc[nH]2)ccn1", "inhibition": "1.43%"}
{"SMILES": "N#C/C(=C\\c1ccc(O)c(O)c1)C(=O)NCc1ccccc1", "inhibition": "91.7%"}
{"SMILES": "CN[C@@H](C)C(=O)N[C@H]1CCCC[C@H]2CC[C@@H](C(=O)N[C@@H](c3ccccc3)c3cn(CCCCc4ccc(CCCCn5cc([C@@H](NC(=O)[C@@H]6CC[C@@H]7CCCC[C@H](NC(=O)[C@H](C)NC)C(=O)N76)c6ccccc6)nn5)cc4)nn3)N2C1=O", "inhibition": "-9.13%"}
{"SMILES": "CN(C)CCCN1c2ccccc2CCc2ccccc21", "inhibition": "14.2%"}
{"SMILES": "Cn1nnnc1SCC1=C(C(=O)O)N2C(=O)[C@@H](NC(=O)[C@H](OC=O)c3ccccc3)[C@H]2SC1", "inhibition": "19.4%"}
{"data": "Sample 2", "target": "Phosphate system positive regulatory protein PHO4, full length, GST-tagged (PHO4, Saccharomyces cerevisiae, UniProt P07270, residues 1-312)", "method": "competition protein-binding microarray", "molecule type": "double-stranded DNA, one strand shown", "medium": "in vitro", "tested at": "2 µM", "setting": "whole 60-bp probe, lowest competitor level", "with": "Cbf1 competitor, 0.05 µM", "direction": "higher = stronger binding", "Target sequence (chain)": "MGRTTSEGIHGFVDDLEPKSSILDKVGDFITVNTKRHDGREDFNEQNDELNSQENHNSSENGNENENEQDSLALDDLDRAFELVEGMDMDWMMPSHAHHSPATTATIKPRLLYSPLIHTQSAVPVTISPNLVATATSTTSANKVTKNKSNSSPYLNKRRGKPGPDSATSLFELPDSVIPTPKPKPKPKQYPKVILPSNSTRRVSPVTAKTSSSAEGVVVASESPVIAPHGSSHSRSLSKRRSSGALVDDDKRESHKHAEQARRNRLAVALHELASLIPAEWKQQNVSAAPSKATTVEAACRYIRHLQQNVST"}
{"Strand": "CATACCCAACCTTGCAGAGTGGGTGAAGATATTTGTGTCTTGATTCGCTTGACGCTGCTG", "fluorescence intensity": "4200 a.u."}
{"Strand": "AAATCTTTGGTTGACAACATGATAACTGGTGTCCCCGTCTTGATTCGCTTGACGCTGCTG", "fluorescence intensity": "4220 a.u."}
{"Strand": "CTTCTGTAAATTTGTCACGTTACTTGACGCGCCCCGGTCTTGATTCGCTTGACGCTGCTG", "fluorescence intensity": "8560 a.u."}
{"Strand": "CCGTCAGATAATATATCCCCGTATAGGTTTGGTGCCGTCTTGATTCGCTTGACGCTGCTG", "fluorescence intensity": "3880 a.u."}
{"Strand": "TGGGCTCACCCGCGGGTCGTGATGGCGATTCAGCAAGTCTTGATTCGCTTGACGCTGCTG", "fluorescence intensity": "4710 a.u."}
{"Strand": "CGTCCTAGTGATTGTGTTGTGGGTGCCATGAGGAAGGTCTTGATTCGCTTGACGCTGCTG", "fluorescence intensity": "6930 a.u."}
{"Strand": "CTAACGAAGGTTTTTCACGTGACATACAAGCCAAGTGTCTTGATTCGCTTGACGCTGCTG", "fluorescence intensity": "12800 a.u."}
{"Strand": "GGCTCTGCCGAGTTCCAGGTGACGCTGGTGGTACGAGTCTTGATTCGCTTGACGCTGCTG", "fluorescence intensity": "2950 a.u."}
{"data": "Sample 3", "target": "Replicase polyprotein 1ab, main protease (rep, Severe acute respiratory syndrome coronavirus 2, UniProt P0DTD1)", "read-out": "enzyme activity", "action": "inhibitor", "tested at": "20 µM", "setting": "primary screen"}
{"Compound": "c1ccc2sc(SSc3nc4ccccc4s3)nc2c1", "inhibition [%]": 83.5}
{"Compound": "COc1cc2c(cc1OCCCN1CCCC1)N=C(N)C21CCC1", "inhibition [%]": 35.4}
{"Compound": "C[C@H]1COC2=C1C(=O)C(=O)c1c2ccc2c1CCCC2(C)C", "inhibition [%]": 79.7}
{"Compound": "CC[C@]12C=CCN3CC[C@@]4(c5cc([C@@]6(C(=O)OC)C[C@@H]7C[C@@H](C(C)(F)F)C[N@](CCc8c6[nH]c6ccccc86)C7)c(OC)cc5N(C)[C@H]4[C@@](O)(C(=O)OC)[C@@H]1OC(C)=O)[C@@H]32", "inhibition [%]": 92}
{"data": "Sample 4", "cell line": "HEK-293T/ACE2", "read-out": "pseudovirus infection", "organism": "VSV pseudotyped with SARS-CoV-2 spike", "tested at": "concentration not given", "relative to": "vehicle-treated"}
{"Compound": "CC[C@H](C)[C@H]1O[C@]2(CC[C@@H]1C)C[C@@H]1C[C@@H](C/C=C(\\C)[C@@H](O[C@H]3C[C@H](OC)[C@@H](O[C@H]4C[C@H](OC)[C@@H](O)[C@H](C)O4)[C@H](C)O3)[C@@H](C)/C=C/C=C3\\CO[C@@H]4[C@H](O)C(C)=C[C@@H](C(=O)O1)[C@]34O)O2", "GFP-positive cells": "33.8%"}
{"Compound": "CC(C)(C)c1nc(-c2cccc(NS(=O)(=O)c3c(F)cccc3F)c2F)c(-c2ccnc(N)n2)s1", "GFP-positive cells": "60.2%"}
{"Compound": "CCC(=O)O[C@@H](O[P@](=O)(CCCCc1ccccc1)CC(=O)N1C[C@H](C2CCCCC2)C[C@H]1C(=O)[O-])C(C)C.[Na+]", "GFP-positive cells": "117%"}
{"Compound": "CNC(=O)c1cc(Oc2ccc(NC(=O)Nc3ccc(Cl)c(C(F)(F)F)c3)c(F)c2)ccn1", "GFP-positive cells": "89.7%"}
{"data": "Sample 5", "target": "Protein max, full length (MAX, Homo sapiens, UniProt P61244-2, residues 1-151)", "method": "protein-binding microarray", "molecule type": "double-stranded DNA, one strand shown", "medium": "in vitro", "tested at": "not given", "setting": "k-mer, scored over probes, only values ≥0.25", "direction": "higher = stronger binding"}
{"Strand": "CATGGTCG", "E-score": 0.354}
{"Strand": "CATGAGGA", "E-score": 0.391}
{"Strand": "CGGCGTGC", "E-score": 0.393}
{"Strand": "AACGCATG", "E-score": 0.453}
{"Strand": "CACGCGCC", "E-score": 0.446}
{"Strand": "CGCAACCA", "E-score": 0.252}
{"Strand": "CACAGGTG", "E-score": 0.32}
{"Strand": "AGGCGTGA", "E-score": 0.33}
{"data": "Sample 6", "target": "TAR DNA-binding protein 43, full length, His tag (TARDBP, Homo sapiens, UniProt Q13148, residues 1-414)", "method": "RNA Bind-n-Seq", "molecule type": "RNA", "medium": "in vitro", "tested at": "20 nM", "setting": "6-mer, flanks averaged, single round", "with": "150 mM LiCl", "relative to": "input library", "direction": "higher = stronger binding"}
{"Strand": "GUUUCU", "6-mer enrichment (R)": 1.08}
{"Strand": "AACUCC", "6-mer enrichment (R)": 1.03}
{"Strand": "AGACAG", "6-mer enrichment (R)": 0.865}
{"Strand": "GCGUGG", "6-mer enrichment (R)": 1.35}
{"Strand": "CGUCAC", "6-mer enrichment (R)": 0.87}
{"Strand": "GAUCCG", "6-mer enrichment (R)": 0.874}
{"Strand": "CUCUAC", "6-mer enrichment (R)": 0.849}
{"Strand": "CAACAG", "6-mer enrichment (R)": 0.816}
